Assay results pooled from the literature.
Protocols differ between the studies behind these lines. Values joined by “and” are separate records of one study, mostly repeats; a detail may differ. ± gives the spread as reported.
Chain of UniProt P22607 (whole entry, looked up): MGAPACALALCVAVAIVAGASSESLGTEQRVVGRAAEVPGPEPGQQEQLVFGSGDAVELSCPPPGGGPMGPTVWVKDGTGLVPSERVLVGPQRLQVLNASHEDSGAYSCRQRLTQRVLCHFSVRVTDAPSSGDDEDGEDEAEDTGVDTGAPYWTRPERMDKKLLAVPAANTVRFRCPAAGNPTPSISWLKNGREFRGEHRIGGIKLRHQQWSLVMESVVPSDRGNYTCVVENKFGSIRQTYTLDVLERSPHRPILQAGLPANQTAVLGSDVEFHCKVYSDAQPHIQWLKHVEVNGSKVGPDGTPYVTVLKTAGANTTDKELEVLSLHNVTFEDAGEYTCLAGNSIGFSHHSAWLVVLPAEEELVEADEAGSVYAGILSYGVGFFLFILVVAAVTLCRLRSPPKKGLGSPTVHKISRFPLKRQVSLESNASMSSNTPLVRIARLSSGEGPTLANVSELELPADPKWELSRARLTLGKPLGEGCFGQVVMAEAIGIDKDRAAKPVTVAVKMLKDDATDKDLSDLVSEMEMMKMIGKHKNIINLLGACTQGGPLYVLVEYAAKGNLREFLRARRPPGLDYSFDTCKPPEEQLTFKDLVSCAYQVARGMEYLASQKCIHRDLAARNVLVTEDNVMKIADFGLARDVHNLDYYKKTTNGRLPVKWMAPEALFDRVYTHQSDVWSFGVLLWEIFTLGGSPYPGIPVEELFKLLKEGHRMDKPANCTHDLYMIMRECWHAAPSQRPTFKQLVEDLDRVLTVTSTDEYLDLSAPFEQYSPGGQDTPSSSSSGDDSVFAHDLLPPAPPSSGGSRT
Chain of UniProt P80457 (whole entry, looked up): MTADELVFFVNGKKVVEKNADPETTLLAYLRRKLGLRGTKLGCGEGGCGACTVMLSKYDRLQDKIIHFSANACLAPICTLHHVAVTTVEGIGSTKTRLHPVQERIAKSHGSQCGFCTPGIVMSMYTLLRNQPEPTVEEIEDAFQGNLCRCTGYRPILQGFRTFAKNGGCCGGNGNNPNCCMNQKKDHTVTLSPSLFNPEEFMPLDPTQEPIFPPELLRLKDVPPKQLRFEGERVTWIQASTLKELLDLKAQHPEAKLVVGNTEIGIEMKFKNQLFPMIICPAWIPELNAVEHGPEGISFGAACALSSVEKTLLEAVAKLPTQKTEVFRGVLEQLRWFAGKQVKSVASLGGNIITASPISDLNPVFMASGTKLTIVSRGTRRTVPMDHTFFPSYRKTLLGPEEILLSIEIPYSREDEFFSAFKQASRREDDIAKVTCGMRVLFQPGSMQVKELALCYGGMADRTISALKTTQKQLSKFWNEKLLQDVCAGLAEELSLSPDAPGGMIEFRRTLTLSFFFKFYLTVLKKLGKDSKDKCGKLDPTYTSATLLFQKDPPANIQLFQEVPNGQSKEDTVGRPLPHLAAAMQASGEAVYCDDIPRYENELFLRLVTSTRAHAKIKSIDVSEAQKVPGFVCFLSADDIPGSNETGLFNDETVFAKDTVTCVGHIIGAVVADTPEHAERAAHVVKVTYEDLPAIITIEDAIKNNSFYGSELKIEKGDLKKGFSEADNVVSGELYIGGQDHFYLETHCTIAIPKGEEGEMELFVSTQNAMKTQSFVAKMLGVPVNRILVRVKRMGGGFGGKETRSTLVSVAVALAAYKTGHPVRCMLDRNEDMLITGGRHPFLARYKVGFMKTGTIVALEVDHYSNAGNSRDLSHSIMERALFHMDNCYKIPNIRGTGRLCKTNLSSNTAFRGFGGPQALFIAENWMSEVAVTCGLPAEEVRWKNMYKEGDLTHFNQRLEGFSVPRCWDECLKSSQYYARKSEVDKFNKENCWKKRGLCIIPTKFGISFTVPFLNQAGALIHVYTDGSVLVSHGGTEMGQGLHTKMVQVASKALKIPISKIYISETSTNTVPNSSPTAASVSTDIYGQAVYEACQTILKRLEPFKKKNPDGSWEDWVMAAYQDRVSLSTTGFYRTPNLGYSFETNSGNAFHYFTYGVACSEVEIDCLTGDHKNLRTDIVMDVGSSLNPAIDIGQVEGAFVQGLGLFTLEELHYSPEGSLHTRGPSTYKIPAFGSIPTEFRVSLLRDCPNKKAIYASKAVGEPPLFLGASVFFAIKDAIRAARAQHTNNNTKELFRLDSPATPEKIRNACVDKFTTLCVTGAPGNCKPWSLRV
Chain of UniProt P50897 (whole entry, looked up): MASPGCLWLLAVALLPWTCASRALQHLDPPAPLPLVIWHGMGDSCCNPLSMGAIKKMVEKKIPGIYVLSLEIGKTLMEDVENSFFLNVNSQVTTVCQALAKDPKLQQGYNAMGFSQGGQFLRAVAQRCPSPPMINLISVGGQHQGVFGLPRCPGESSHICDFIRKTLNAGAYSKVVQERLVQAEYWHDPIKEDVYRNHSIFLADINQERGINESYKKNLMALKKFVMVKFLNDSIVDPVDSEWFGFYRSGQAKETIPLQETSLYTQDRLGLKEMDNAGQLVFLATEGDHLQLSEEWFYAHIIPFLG
Chain of UniProt Q9UQD0 (whole entry, looked up): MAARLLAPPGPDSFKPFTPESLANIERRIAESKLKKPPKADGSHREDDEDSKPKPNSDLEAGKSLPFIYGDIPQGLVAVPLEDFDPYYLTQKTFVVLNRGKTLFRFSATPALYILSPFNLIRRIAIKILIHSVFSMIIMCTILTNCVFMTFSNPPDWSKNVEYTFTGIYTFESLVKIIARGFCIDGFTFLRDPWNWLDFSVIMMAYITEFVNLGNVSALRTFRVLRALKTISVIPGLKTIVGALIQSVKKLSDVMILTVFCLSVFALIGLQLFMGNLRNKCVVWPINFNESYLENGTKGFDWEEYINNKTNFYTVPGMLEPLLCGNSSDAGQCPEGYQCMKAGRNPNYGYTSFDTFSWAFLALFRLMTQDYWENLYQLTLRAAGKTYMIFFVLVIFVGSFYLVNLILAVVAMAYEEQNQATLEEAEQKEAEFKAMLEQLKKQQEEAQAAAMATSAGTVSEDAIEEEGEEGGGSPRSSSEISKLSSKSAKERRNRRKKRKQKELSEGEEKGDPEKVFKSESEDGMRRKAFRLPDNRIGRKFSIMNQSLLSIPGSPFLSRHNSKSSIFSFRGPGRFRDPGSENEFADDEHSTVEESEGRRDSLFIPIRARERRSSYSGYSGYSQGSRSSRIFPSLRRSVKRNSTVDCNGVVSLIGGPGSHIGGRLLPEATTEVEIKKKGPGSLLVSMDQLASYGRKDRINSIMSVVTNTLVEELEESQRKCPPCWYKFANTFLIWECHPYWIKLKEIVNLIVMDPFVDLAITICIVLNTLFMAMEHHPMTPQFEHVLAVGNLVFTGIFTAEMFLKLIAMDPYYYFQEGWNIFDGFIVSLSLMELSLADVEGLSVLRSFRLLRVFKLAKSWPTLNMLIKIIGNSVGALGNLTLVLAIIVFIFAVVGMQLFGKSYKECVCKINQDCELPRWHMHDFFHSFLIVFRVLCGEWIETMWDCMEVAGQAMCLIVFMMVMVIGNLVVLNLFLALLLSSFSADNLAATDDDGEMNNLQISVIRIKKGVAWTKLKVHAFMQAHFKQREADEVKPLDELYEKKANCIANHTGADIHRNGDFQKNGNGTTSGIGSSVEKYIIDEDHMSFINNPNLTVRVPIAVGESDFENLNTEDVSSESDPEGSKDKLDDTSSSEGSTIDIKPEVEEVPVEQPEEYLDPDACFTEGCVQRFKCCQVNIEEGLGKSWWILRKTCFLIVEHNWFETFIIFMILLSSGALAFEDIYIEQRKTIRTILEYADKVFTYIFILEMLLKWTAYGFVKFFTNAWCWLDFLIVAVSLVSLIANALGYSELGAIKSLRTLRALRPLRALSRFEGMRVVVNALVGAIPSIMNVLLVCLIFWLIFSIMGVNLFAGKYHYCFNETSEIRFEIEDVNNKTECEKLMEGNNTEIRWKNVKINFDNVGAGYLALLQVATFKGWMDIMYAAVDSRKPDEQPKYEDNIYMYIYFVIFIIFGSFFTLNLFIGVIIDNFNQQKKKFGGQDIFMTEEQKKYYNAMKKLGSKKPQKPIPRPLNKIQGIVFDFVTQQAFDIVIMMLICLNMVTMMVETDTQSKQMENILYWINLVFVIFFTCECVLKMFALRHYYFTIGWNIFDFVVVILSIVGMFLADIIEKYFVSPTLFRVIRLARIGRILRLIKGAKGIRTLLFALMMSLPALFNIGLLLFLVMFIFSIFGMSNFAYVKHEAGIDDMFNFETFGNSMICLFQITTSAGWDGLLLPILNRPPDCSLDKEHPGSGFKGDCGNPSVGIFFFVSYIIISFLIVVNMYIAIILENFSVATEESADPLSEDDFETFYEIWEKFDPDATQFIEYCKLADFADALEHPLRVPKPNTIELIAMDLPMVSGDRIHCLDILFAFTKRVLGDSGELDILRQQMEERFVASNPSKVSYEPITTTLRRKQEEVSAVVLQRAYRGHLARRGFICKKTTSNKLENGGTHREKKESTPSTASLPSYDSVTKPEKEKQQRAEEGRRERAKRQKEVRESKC
Chain of UniProt O96017 (whole entry, looked up): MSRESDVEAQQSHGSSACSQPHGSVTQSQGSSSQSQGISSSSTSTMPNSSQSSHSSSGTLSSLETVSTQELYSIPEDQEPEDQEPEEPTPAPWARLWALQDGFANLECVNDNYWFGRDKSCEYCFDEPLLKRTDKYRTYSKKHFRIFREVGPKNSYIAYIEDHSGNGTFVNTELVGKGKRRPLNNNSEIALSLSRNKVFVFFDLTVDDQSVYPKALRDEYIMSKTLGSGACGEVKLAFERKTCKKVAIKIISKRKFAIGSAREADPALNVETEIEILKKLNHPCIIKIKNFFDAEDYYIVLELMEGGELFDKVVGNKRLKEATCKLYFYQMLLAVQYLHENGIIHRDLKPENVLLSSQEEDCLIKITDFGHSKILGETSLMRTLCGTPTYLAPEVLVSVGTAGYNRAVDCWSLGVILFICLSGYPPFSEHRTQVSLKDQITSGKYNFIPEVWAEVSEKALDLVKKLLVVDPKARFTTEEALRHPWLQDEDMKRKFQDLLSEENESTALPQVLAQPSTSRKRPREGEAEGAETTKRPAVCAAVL

| Compound | target | assay | test system | conditions | IC50 |
| --- | --- | --- | --- | --- | --- |
| CCOC(=O)Cn1nnc2ccccc21 | Xanthine dehydrogenase/oxidase, oxidase form (XDH, Bos taurus, UniProt P80457) | enzyme activity, inhibitor | – | – | ≤ 487 µM |
| CC(C)(C)C(=O)Cn1nnc(-c2ccc(C(F)(F)F)cc2)n1 | Trypanothione synthetase (Trypanosoma brucei, UniProt Q586P2) | enzyme activity, inhibitor | – | – | > 100 µM |
| O=S(=O)(Nc1cscn1)c1c(F)cc(NCc2c(F)ccc(F)c2CN2CCC2)cc1F | SCN8A (Homo sapiens, UniProt Q9UQD0) | ion current, inhibitor, automated patch clamp | – | resting state, held at -120 mV | > 100 µM |
| Cc1ccc2c(=O)n(-c3ccc([18F])cc3)c(CCN3C(=O)c4cccc(OC(C)C)c4C3=O)nc2c1 | PDE10A (Homo sapiens, UniProt Q9Y233) | cell-free assay, inhibitor, FP | – | – | 0.0021 µM |
| OCC1OC(Oc2ccc(C=Cc3cc(O)cc(O)c3)cc2)C(O)C(O)C1O (stereo not drawn) | XDH (Bos taurus, UniProt P80457) | uric acid formation, inhibitor | – | pH 10.0, 25 °C, with: 200 µM xanthine | 25 ± 4 µM |
| CNC(=O)N(C)c1ccc(C(=O)Nc2ccc(C)cc2C(=O)Nc2ccc(Cl)cn2)c(OC)c1 | F10 (Homo sapiens, UniProt P00742) | enzyme activity, inhibitor, absorbance | – | – | 0.01 µM |
| CC(CO)C1CCC2(C)C3=CCC4C5(CCC(OC5=O)C4(C)C)C3=CCC12C (stereo not drawn) | PTPN6 (Homo sapiens, UniProt P29350) | enzyme activity, inhibitor, absorbance | – | – | 6.18 µM |
| CCC(CC)[C@H](NC(C)=O)[C@@H]1[C@H](O)[C@@H](C(=O)N[C@H](C(=O)O)[C@@H](C)CC)C[C@H]1NC(=N)N | SLC15A1 (Homo sapiens, UniProt P46059) | transporter uptake, inhibitor | – | – | 1780 µM |
| CN1CCN(C(=O)c2ccc(-c3ccc4c(c3)/C(=C/c3ccc(N5CCOCC5)cc3)C(=O)N4)cc2)CC1 | FGFR3 (Homo sapiens, UniProt P22607) | enzyme activity, inhibitor | – | – | 0.0065 µM |
| CC(C)C[C@H](NC(=O)[C@H](Cc1c[nH]cn1)NC(=O)[C@H](CC(=O)O)NC(=O)[C@H](CCCNC(=N)N)NC(=O)[C@H](CO)NC(=O)[C@@H]1CCCN1C(=O)[C@H](CCCNC(=N)N)NC(=O)[C@H](CCC(=O)O)NC(=O)[C@H](C)NC(=O)[C@@H](N)Cc1ccc(O)cc1)C(=O)N[C@@H](Cc1ccc(O)cc1)C(=O)N[C@@H](CC(C)C)C(=O)N1CCC[C@H]1C(=O)N[C@@H](CC(C)C)C(=O)N[C@@H](CCC(=O)O)C(=O)N1CCC[C@H]1C(=O)O | Mitogen-activated protein kinase 14 (Rattus norvegicus, UniProt P70618, D315S/D316E/E317A) | kinase activity, inhibitor, competitive kinase | – | – | > 100 µM |
| NNc1nc2cc3ccccc3cc2c(=O)n1Cc1ccccc1 | Genome polyprotein, protease (Hepatitis C virus genotype 1b, UniProt O92972) | enzyme activity, inhibitor, FRET | – | – | 223 µM |
| Cc1ccc(C[C@@H]2NC(=O)[C@H](CC3CCCCC3)NC(=O)/C=C/C(=O)N[C@H](C(N)=O)CCCNC(=O)[C@H](Cc3ccc([N+](=O)[O-])cc3)NC2=O)cc1 | Proto-oncogene tyrosine-protein kinase Src, SH3-SH2-kinase domain (SRC, Gallus gallus, UniProt P00523) | enzyme activity, inhibitor, Z'-LYTE FRET | – | Src residues 83-533, with: 50 µM ATP | 0.37 ± 0.04 µM |
| Cc1ccc(-c2csc(CS(=O)(=O)C(C)(C)C)n2)cc1 | Trypanothione synthetase (Trypanosoma brucei, UniProt Q586P2) | enzyme activity, inhibitor | – | – | > 100 µM |
| CN(C(=O)c1ccn2ncc(-c3ccc(C(N)=O)cc3)c2c1)c1ccc(C#N)cn1 | IGF1R (Homo sapiens, UniProt P08069) | enzyme activity, inhibitor | – | – | > 10 µM |
| O=C(NCc1ccc([C@@H]2O[C@H](COP(=O)(O)O)[C@@H](O)[C@H]2O)cc1)Nc1ccc(S(=O)(=O)N2CC3CCC(C2)O3)cc1 | Nampt (Mus musculus, UniProt Q99KQ4) | enzyme activity, inhibitor, fluorescence | – | – | 4.32 µM |
| CC(=O)Nc1ccc(S(=O)(=O)N(C)Cc2nc(-c3ccccc3)no2)cc1 | Trypanothione synthetase (Trypanosoma brucei, UniProt Q586P2) | enzyme activity, inhibitor | – | – | > 50 µM |
| Cc1ccccc1-c1cc(N2CCCCC2)ccc1N(C)C(=O)C(C)(C)c1cc(C(F)(F)F)cc(C(F)(F)F)c1 | TACR1 (Homo sapiens, UniProt P25103) | IP1 accumulation, antagonist, HTRF | – | 90 min preincubation, with: substance P 10 nM | 0.166 µM |

| Compound | target | assay | test system | conditions | IC50 |
| --- | --- | --- | --- | --- | --- |
| O=C1/C=C/C(=O)N[C@@H](CC2CCCCC2)C(=O)N[C@@H](Cc2ccc(F)cc2)C(=O)N[C@@H](Cc2ccc([N+](=O)[O-])cc2)C(=O)NCCC[C@@H](C(=O)O)N1 | SRC (Gallus gallus, UniProt P00523) | enzyme activity, inhibitor | kinase domain | with: 250 µM ATP | 0.099 µM |
| CN1CCN(Cc2ccc(-c3ccc(CO[C@H]4CCC[C@@H]4NC(=O)c4cc(-c5cnn(C)c5)cnc4N)cc3)cc2)CC1 | CHEK2 (Homo sapiens, UniProt O96017) | enzyme activity, inhibitor | – | – | 0.102 µM |
| Nc1nc(-c2cccc(Br)c2)cs1 | Capsid scaffolding protein, protease domain (Human herpesvirus 8 type P, UniProt Q2HRB6) | protease activity, inhibitor | – | with: fluorogenic peptide substrate | 151 µM |
| CCOC(=O)N1CCN(Cc2nc3c(c(=O)n(C)c(=O)n3C)n2CCC(C)C)CC1 | HPGD (Homo sapiens, UniProt P15428) | – | – | – | > 57 µM |
| O=C(O)CCc1ccc2c(c1)c(CCc1ccccc1)cn2-c1ccc(Oc2ccccc2)cc1 | PLA2G4A (Homo sapiens, UniProt P47712) | enzyme activity, inhibitor, fluorescence | – | – | 6.66 µM |
| CN(CCCCCCNc1ccnc2cc(Cl)ccc12)CCCCCCNc1ccnc2cc(Cl)ccc12 | Palmitoyl-protein thioesterase 1 (Homo sapiens, UniProt P50897) | enzyme activity, inhibitor | – | – | 130 µM and ~130 µM |
| CCS(=O)(=O)c1ncc(Cl)c(C(=O)Nc2c(C(=O)Nc3cccc(C)c3)oc3ccccc23)n1 | Forkhead box protein M1, DNA-binding domain (FOXM1, Homo sapiens, UniProt Q08050) | DNA binding, inhibitor, EMSA | – | DNA-binding domain | 34.4 ± 11.2 µM |
| CCN1CCC(N(C)C(=O)Cc2ccc(O)cc2Cl)C(C)C1 (stereo not drawn) | RAD52 (Homo sapiens, UniProt P43351) | DNA binding, inhibitor, FRET | – | 25 °C, with: Cy3-dT30-Cy5 1 nM | 249 ± 9.5 µM |
| COC(=O)N1c2ccc3c(nc(Cc4ccccc4)n3[C@@H]3CCC[C@@H](C(=O)O)C3)c2CC[C@@H]1C | Bromodomain and WD repeat-containing protein 1, bromodomain 2 (BRWD1, Homo sapiens, UniProt Q9NSI6) | binding, inhibitor, AlphaScreen | – | – | > 10 µM |
| COc1ccc(CNC(=O)c2sc3nc(OCc4ccncc4)cc(C)c3c2N)cc1 | HRH3 (Homo sapiens, UniProt Q9Y5N1) | receptor activity, antagonist | – | – | ~10 µM |
| COc1cc(N2CCN(C)CC2)ccc1Nc1ncc2c(n1)N(C)c1ccc(C)cc1C(=O)N2CC(F)(F)F | DCLK1 (Homo sapiens, UniProt O15075) | target engagement, NanoBRET | HCT-116 | – | > 10 µM |
| CC(C)CCCc1ccc2c(c1)C(=O)C(Br)=C(Br)C2=O | DNA topoisomerase IB (Leishmania donovani, UniProt A0A3Q8IHS4+Q8WQM6) | DNA relaxation activity, inhibitor | – | with: supercoiled plasmid DNA | 13.5 ± 0.6 µM |
| COc1c(C(=O)/C=C/c2ccc(F)cc2)c(O)c(OC)c2occc12 | Cytochrome P450 1A1 (CYP1A1, Homo sapiens, UniProt P04798) | enzyme activity, inhibitor | – | 15 min, pH 7.4 | 0.32 µM |
| Cc1ccc2nc(-c3ccc(N=NNc4ccc(-c5nc6ccc(C)c(S(=O)(=O)O)c6s5)cc4)cc3)sc2c1S(=O)(=O)O | Genome polyprotein, NS3 helicase domain (Hepatitis C virus genotype 1b, UniProt Q9WMX2) | helicase activity, molecular beacon helicase | – | with: RNA substrate | 30 ± 3.6 µM |
| CC(C)n1nc(-c2ccc3cc(OCc4cccc(Cl)c4)ccc3c2)c2c(N)ncnc21 | Tyrosine-protein kinase HCK, SH3 (HCK, Homo sapiens, UniProt P08631, K245P/K248P) | enzyme activity, inhibitor | – | – | 0.027 µM |
| CCCCCCCCCCCCCCCC[n+]1ccn(Cc2ccccc2)c1C | Trypanothione synthetase (Trypanosoma brucei brucei, UniProt Q586P2) | enzyme activity, BIOMOL Green phosphate release | – | 1 h preincubation | 12 ± 2.5 µM |
